Measured values pooled from the literature.
Compare with care: the assays were run in different laboratories. ± marks the error that the study gave.
B1: C1S 438-688 S632A (Homo sapiens, UniProt P09871); chain IIGGSDADIKNFPWQVFFDNPWAGGALINEYWVLTAAHVVEGNREPTMYVGSTSVQTSRLAKSKMLTPEHVFIHPGWKLLEVPEGRTNFDNDIALVRLKDPVKMGPTVSPICLPGTSSDYNLMDGDLGLISGWGRTEKRDRAVRLKAARLPVAPLRKCKEVKVEKPTADAEAYVFTPNMICAGGEKGMDSCKGDAGGAFAVQDPNDKTKFYAAGLVSWGPQCGTYGLYTRVKNYVDWIMKTMQENSTPRED
B2: Cacna1c 1647-1777 (Mus musculus, UniProt Q01815); sequence looked up; chain NALSLQAGLRTLHDIGPEIRRAISGDLTAEEELDKAMKEAVSAASEDDIFRRAGGLFGNHVTYYQSDSRGNFPQTFATQRPLHINKTGNNQADTESPSHEKLVDSTFTPSSYSSTGSNANINNANNTALGR
B3: CRYAA G98R (Homo sapiens, UniProt P02489); sequence looked up; chain MDVTIQHPWFKRTLGPFYPSRLFDQFFGEGLFEYDLLPFLSSTISPYYRQSLFRTVLDSGISEVRSDRDKFVIFLDVKHFSPEDLTVKVQDDFVEIHRKHNERQDDHGYISREFHRRYRLPSNVDQSALSCSLSADGMLTFCGPKIQTGLDATHAERAIPVSREEKPTSAPSS
B4: CYB5R4 (Homo sapiens, UniProt Q7L1T6); chain MLNVPSQSFPAPRSQQRVASGGRSKVPLKQGRSLMDWIRLTKSGKDLTGLKGRLIEVTEEELKKHNKKDDCWICIRGFVYNVSPYMEYHPGGEDELMRAAGSDGTELFDQVHRWVNYESMLKECLVGRMAIKPAVLKDYREEEKKVLNGMLPKSQVTDTLAKEGPSYPSYDWFQTDSLVTIAIYTKQKDINLDSIIVDHQNDSFRAETIIKDCLYLIHIGLSHEVQEDFSVRVVESVGKIEIVLQKKENTSWDFLGHPLKNHNSLIPRKDTGLYYRKCQLISKEDVTHDTRLFCLMLPPSTHLQVPIGQHVYLKLPITGTEIVKPYTPVSGSLLSEFKEPVLPNNKYIYFLIKIYPTGLFTPELDRLQIGDFVSVSSPEGNFKISKFQELEDLFLLAAGTGFTPMVKILNYALTDIPSLRKVKLMFFNKTEDDIIWRSQLEKLAFKDKRLDVEFVLSAPISEWNGKQGHISPALLSEFLKRNLDKSKVLVCICGPVPFTEQGVRLLHDLNFSKNEIHSFTA
B5: EFR3A 721-791 (Homo sapiens, UniProt Q14156); chain SNTEEITFEALKKAIDTSGMEEQEKEKRRLVIEKFQKAPFEEIAAQCESKANLLHDRLAQILELTIRPPPS
UniProt P00330, sequence (whole entry, looked up): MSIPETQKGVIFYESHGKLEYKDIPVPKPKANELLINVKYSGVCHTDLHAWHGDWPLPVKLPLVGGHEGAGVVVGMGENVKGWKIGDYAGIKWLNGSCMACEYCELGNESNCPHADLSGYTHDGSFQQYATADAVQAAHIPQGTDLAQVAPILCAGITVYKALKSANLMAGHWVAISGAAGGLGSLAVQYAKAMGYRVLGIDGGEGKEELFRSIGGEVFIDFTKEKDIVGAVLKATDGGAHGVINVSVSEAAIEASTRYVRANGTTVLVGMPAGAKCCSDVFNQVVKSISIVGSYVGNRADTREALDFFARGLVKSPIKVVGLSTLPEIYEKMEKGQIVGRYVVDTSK
UniProt Q99062, sequence (whole entry, looked up): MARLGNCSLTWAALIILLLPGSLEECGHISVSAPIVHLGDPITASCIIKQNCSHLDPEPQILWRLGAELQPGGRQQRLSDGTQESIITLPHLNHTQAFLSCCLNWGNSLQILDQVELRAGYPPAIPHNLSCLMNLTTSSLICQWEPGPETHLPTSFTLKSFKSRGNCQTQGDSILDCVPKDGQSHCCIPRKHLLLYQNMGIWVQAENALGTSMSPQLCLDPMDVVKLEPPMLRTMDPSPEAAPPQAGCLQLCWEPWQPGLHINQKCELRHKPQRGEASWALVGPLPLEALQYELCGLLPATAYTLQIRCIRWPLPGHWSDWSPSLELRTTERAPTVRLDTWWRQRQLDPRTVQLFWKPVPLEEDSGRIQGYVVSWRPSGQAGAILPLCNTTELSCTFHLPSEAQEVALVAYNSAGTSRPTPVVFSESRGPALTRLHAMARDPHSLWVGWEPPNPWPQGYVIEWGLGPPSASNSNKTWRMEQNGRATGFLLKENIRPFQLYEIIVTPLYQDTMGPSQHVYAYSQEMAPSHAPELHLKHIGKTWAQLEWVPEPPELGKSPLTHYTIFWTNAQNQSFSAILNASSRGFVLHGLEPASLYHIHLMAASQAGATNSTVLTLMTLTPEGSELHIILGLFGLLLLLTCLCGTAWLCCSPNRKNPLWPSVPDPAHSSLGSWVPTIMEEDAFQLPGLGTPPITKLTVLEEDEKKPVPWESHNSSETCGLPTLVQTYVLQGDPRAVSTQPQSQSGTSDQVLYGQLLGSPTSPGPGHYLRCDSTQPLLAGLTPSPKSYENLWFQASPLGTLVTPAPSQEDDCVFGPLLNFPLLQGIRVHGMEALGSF
UniProt P05155, sequence (whole entry, unmodified, looked up): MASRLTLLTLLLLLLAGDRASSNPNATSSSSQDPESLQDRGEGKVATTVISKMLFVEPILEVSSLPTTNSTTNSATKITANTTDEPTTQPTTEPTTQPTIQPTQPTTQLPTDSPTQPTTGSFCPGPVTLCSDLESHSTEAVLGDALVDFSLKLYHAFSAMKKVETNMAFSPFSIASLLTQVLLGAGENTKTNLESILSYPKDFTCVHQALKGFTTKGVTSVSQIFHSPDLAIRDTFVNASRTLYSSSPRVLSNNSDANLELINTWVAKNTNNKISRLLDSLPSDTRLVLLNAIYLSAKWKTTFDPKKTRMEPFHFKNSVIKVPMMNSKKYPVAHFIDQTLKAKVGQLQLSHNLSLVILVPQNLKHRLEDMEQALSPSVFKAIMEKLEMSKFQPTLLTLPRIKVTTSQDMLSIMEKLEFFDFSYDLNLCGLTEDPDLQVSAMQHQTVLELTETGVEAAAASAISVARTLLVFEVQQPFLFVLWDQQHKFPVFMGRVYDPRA
UniProt P32833, sequence (whole entry, looked up): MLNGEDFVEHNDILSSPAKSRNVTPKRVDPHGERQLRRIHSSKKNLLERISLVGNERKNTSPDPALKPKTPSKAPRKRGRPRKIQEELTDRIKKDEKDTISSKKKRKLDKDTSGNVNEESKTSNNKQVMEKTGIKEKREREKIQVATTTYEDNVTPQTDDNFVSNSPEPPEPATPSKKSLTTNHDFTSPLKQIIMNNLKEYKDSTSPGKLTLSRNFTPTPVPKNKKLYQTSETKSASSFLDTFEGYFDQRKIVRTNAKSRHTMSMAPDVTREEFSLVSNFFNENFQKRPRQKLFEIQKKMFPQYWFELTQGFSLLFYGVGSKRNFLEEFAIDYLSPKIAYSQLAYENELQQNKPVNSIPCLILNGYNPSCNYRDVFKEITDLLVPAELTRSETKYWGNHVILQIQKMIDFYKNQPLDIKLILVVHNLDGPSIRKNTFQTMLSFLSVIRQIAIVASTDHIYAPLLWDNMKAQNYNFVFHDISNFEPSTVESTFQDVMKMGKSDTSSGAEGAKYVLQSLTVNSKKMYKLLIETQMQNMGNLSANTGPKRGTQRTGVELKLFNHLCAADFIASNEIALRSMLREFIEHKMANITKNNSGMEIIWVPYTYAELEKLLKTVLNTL
UniProt Q8WWM9, sequence (whole entry, looked up): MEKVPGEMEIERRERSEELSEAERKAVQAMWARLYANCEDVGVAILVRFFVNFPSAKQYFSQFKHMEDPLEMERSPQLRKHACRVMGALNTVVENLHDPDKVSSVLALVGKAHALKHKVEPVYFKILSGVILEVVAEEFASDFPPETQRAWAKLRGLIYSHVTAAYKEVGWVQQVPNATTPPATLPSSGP
UniProt P13010, sequence (whole entry, looked up): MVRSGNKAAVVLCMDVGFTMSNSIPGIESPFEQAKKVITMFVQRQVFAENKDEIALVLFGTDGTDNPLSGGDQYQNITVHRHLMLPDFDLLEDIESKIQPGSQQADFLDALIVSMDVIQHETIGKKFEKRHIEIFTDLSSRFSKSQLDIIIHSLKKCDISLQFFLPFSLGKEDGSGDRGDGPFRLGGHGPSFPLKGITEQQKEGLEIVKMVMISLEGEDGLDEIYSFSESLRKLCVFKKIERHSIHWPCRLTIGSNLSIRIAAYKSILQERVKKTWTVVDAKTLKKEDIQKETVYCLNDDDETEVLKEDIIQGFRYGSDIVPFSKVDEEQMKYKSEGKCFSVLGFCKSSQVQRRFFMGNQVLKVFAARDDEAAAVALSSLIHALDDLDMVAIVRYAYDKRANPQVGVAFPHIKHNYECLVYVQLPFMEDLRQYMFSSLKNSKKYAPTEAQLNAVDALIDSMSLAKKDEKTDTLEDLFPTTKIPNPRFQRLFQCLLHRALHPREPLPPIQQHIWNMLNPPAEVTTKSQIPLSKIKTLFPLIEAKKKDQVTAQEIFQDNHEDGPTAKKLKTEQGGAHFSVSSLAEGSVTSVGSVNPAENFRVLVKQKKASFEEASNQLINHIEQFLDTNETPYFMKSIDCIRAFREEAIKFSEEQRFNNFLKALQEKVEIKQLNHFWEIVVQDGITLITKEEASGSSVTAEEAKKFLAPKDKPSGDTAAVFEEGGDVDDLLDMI
UniProt P54790, sequence (whole entry, looked up): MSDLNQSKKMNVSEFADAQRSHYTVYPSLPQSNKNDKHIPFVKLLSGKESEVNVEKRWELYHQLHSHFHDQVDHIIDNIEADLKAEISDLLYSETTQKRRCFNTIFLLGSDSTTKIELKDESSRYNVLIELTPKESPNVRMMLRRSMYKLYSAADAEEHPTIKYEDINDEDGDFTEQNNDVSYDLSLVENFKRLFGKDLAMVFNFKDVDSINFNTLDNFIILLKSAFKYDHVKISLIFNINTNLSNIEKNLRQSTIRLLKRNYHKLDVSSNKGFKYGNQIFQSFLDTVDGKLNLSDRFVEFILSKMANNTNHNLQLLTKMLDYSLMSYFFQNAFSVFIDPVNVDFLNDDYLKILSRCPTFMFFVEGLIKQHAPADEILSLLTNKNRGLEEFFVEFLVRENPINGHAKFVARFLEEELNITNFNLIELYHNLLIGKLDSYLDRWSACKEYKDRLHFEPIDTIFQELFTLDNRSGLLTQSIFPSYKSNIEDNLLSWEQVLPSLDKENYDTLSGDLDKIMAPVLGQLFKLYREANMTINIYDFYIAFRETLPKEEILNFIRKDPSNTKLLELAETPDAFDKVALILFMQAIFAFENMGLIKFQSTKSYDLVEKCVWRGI
UniProt Q8VI67, sequence (whole entry, looked up): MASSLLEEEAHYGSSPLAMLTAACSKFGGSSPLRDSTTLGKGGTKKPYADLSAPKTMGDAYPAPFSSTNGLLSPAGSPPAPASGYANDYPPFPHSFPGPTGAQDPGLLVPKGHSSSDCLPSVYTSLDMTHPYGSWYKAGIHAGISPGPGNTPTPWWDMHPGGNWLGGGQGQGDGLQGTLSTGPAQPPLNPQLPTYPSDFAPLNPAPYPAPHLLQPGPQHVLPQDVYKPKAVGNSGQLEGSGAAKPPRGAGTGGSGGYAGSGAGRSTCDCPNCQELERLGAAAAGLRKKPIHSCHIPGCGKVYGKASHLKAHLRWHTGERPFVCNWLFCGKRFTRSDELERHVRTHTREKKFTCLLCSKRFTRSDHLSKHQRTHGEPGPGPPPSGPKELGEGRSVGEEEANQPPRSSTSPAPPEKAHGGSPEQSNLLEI
UniProt Q05541, sequence (whole entry, looked up): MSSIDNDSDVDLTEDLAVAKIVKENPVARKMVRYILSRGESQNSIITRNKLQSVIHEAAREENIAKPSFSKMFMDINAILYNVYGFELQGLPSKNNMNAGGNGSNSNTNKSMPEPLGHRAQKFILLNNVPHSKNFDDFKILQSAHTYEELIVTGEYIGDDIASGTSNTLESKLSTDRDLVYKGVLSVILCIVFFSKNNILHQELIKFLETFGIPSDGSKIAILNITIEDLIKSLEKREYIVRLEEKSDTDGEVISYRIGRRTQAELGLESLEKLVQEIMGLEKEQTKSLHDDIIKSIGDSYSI
UniProt P43124, sequence (whole entry, looked up): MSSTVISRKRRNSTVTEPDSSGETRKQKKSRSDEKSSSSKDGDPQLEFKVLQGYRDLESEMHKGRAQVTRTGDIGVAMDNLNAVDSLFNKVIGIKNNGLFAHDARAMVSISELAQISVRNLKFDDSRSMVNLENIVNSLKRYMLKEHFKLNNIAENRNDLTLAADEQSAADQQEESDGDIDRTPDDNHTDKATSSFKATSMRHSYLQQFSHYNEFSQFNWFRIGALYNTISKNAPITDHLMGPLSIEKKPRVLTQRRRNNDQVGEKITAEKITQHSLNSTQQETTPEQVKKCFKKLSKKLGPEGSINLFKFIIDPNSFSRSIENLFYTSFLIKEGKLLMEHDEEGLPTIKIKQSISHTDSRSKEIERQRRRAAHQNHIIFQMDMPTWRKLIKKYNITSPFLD

| Molecule | target or system | test | test system | conditions | scale | endpoint | result |
| --- | --- | --- | --- | --- | --- | --- | --- |
| NGVTKTIAEPRARVEKDYGK (gld-3 860-879 L867A (Caenorhabditis elegans, UniProt Q95ZK7); sequence looked up) | fbf-2 164-575 (Caenorhabditis elegans, UniProt Q09312) | fluorescence polarisation | peptide |  | relative to: wild-type GLD-3, higher = weaker competition | IC50 ratio | > 60 fold |
| DYNLRB1/DYNLL1/DYNLT1/DYNC1LI2/DYNC1I2/DYNC1H1 dynein-1 complex (Homo sapiens) | NINL/KASH5 chimera NINL CC, KASH5 LIC-BD, HaloTag | pull-down |  |  |  | Ka | > 1.6e+06 M⁻¹ |
| DYNC1H1 (Homo sapiens, UniProt Q14204) | NUMA1 1-705 (Homo sapiens, UniProt Q14980) | time-lapse imaging | Flp-In T-REx mitotic | nanomolar concentration, with: BI2536 |  | cortical dynein loss half-time | 20.7 min |
| CDC6 (Saccharomyces cerevisiae, UniProt P09119) | ORC3 (Saccharomyces cerevisiae, UniProt P54790) | cross-linking MS |  | hits only |  | interaction screen | cross-linked |
| ADSL (Homo sapiens, UniProt P30566) | Hemoglobin subunit alpha (Homo sapiens, UniProt P69905) | cross-linking MS |  | with: DSSO or DMTMM |  | cross-linked residues | K224 to D75 |
| KPGKGSETVV | human SCRIB PDZ3-4 tandem (MBP fusion) | automated holdup | peptide, crude extract | concentration not given, uncorrected, unit not given | relative to: biotin control resin, higher = stronger binding | binding intensity | 0.128 |
| B1 (C1S 438-688 S632A) | SERPING1 111-500 K328A/K329A (Homo sapiens, UniProt P05155) | SPR |  | with: Ca2+ |  | koff | 0.0897 s⁻¹ |
| pegfilgrastim, PEGylated, about 39 kDa (Homo sapiens, UniProt P09919-2) | CSF3R (Homo sapiens, UniProt Q99062) | STAT3-driven luciferase reporter induction, agonist | 293-CSF3R | untreated control sample |  | EC50 | 0.00046 µg/mL |
| TAF4 (Homo sapiens, UniProt O00268) | ALB (Homo sapiens, UniProt P02768) | cross-linking MS |  | with: DSSO |  | cross-linked residues | K955 to K219 |
| Itpr1 domain 3 | BCL2L2 BH4 11-28 R11A, stapled, i+4 | pull-down |  | alanine scan | relative to: parent peptide, higher = more binding | pull-down relative to parent peptide | < 50% |
| NSE4 (Saccharomyces cerevisiae, UniProt P43124) | NSE3 (Saccharomyces cerevisiae, UniProt Q05541) | cross-linking MS |  | hits only |  | interaction screen | cross-linked |
| PUX6 fragment (Arabidopsis thaliana) | CDC48A 1-463 (Arabidopsis thaliana, UniProt P54609) | ITC |  |  |  | ΔH | 2.2 ± 0.0956 kcal/mol |
| ACOT7 (Homo sapiens, UniProt O00154) | ENO1 (Homo sapiens, UniProt P06733) | cross-linking MS | cells | with: iqPIR |  | cross-linked residues | K286 to K420 |
| ALB (Homo sapiens, UniProt P02768) | VSIG10L (Homo sapiens, UniProt Q86VR7) | cross-linking MS |  | with: DSSO |  | cross-linked residues | K223 to K171 |
| B2 (Cacna1c 1647-1777) | JPH2 1-446 (Homo sapiens, UniProt Q9BR39-1) | ITC |  |  |  | Kd | 5.64 µM |
| Ro60 (Bos taurus) | RO60 331-345 | SPR |  |  |  | response units | > 200 RU |
| GSGAGSETKM | human SCRIB PDZ3-4 tandem (MBP fusion) | automated holdup | peptide, purified PDZ protein | concentration not given, unit not given | relative to: biotin control resin, higher = stronger binding | binding intensity | -0.0477 |

| Molecule | target or system | test | test system | conditions | scale | endpoint | result |
| --- | --- | --- | --- | --- | --- | --- | --- |
| B3 (CRYAA G98R) | ADH1 (Saccharomyces cerevisiae, UniProt P00330) | EDTA-induced ADH aggregation, absorbance, inhibitor |  | 250 µg |  | ADH aggregation suppression IC50 | 38 µg |
| FGA (Homo sapiens, UniProt P02671) | ERBB3 (Homo sapiens, UniProt P21860) | cross-linking MS |  | with: DSSO |  | cross-linked residues | K440 to K705 |
| ANDELISF (TCF7L2 14-21 (UniProt Q9NQB0); N-terminal acetyl; sequence looked up) | CTNNB1 135-668 (Homo sapiens, UniProt P35222) | fluorescence polarisation | peptide |  |  | Ki | 57.4 ± 18 µM |
| FGB (Homo sapiens, UniProt P02675) | RRP15 (Homo sapiens, UniProt Q9Y3B9) | cross-linking MS |  | with: DSSO |  | cross-linked residues | K163 to K126 |
| XRCC5 (Homo sapiens, UniProt P13010) | ARHGAP44 (Homo sapiens, UniProt Q17R89) | cross-linking MS | cells | with: iqPIR |  | cross-linked residues | K265 to K650 |
| GLP-1/MC4 receptor agonist chimeric peptide, D-Ser position 2 | MC1R (Homo sapiens, UniProt Q01726) | cAMP, agonist, HTRF |  | recombinant |  | EC50 | 0.0147 µM |
| PKLPPKTYKREH (SOS1 proline-rich peptide, 1303-1314) | GRB2 1-58 (Homo sapiens, UniProt P62993) | NMR titration | peptide |  |  | chemical shift perturbation | 0.11 ppm |
| CALLLSAPRR (GOT2 (Gallus gallus); fluorescein label) | HSPA9 47-584 (Homo sapiens, UniProt P38646) | FP | peptide |  |  | koff | 0.00433 s⁻¹ |
| PDE4D3/GFP (Homo sapiens) | AKAP6 P1400S (Homo sapiens, UniProt Q13023-1) | co-IP | HEK293 | P1400S mutant, without stimulation | relative to: normalised to mAKAP precipitated, higher = more PDE4D3 bound | relative binding | 3.28 |
| ORC2 (Saccharomyces cerevisiae, UniProt P32833) | ORC6 (Saccharomyces cerevisiae, UniProt P38826) | cross-linking MS |  | hits only |  | interaction screen | cross-linked |
| SERPINC1 (Homo sapiens, UniProt P01008) | RBM19 (Homo sapiens, UniProt Q9Y4C8) | cross-linking MS |  | with: DSSO |  | cross-linked residues | K171 to K382 |
| B4 (CYB5R4) | CYGB (Homo sapiens, UniProt Q8WWM9) | NO dioxygenation |  | 750 nM, 37 °C, wild type, with: NADH 200 µM |  | time | < 50 s |
| PALLD Ig3-Ig4 tandem x, scrambled linker | ACTA1 F-actin (Oryctolagus cuniculus, UniProt P68135) | low-speed co-sedimentation |  | 5 µM |  | bundled F-actin fraction | 15.5% |
| Runx2 (Mus musculus, UniProt Q08775) | Sp7 (Mus musculus, UniProt Q8VI67) | luciferase reporter | epithelial cells |  | relative to: alone, higher = greater activity | FGF3 promoter activity | 130 fold |
| B5 (EFR3A 721-791) | TTC7B/FAM126A 1-308 | BLI |  |  |  | koff | 1.68e-05 s⁻¹ |
| FGG (Homo sapiens, UniProt P02679) | VPS13D (Homo sapiens, UniProt Q5THJ4) | cross-linking MS |  | with: DSSO |  | cross-linked residues | K177 to K2055 |
| colistin | Klebsiella oxytoca | broth microdilution | clinical isolate RKI 609/16 |  |  | MIC | 1 µg/mL |

A few entries again:
| Molecule | target or system | test | test system | conditions | scale | endpoint | result |
| --- | --- | --- | --- | --- | --- | --- | --- |
| CALLLSAPRR (GOT2 (Gallus gallus); fluorescein label) | HSPA9 47-584 (Homo sapiens, UniProt P38646) | FP | peptide |  |  | koff | 0.00433 s⁻¹ |
| PDE4D3/GFP (Homo sapiens) | AKAP6 P1400S (Homo sapiens, UniProt Q13023-1) | co-IP | HEK293 | P1400S mutant, without stimulation | relative to: normalised to mAKAP precipitated, higher = more PDE4D3 bound | relative binding | 3.28 |
